Measurements from different studies.
Lines come from different studies, so protocols differ. Values joined by “and” are separate records of one study, mostly repeats; a detail may differ. ± gives the spread as reported.
Fibroin-modulator-binding protein-1: Fibroin-modulator-binding protein-1 99-193 (Bombyx mori, UniProt Q5FBS0)
SPT15/TOA1/TOA2/SUA7 1-240; 1-286; 1-122; 1-345: SPT15/TOA1/TOA2/SUA7 1-240; 1-286; 1-122; 1-345 (Saccharomyces cerevisiae)
Chain of UniProt Q64663 (whole entry, unmodified, looked up): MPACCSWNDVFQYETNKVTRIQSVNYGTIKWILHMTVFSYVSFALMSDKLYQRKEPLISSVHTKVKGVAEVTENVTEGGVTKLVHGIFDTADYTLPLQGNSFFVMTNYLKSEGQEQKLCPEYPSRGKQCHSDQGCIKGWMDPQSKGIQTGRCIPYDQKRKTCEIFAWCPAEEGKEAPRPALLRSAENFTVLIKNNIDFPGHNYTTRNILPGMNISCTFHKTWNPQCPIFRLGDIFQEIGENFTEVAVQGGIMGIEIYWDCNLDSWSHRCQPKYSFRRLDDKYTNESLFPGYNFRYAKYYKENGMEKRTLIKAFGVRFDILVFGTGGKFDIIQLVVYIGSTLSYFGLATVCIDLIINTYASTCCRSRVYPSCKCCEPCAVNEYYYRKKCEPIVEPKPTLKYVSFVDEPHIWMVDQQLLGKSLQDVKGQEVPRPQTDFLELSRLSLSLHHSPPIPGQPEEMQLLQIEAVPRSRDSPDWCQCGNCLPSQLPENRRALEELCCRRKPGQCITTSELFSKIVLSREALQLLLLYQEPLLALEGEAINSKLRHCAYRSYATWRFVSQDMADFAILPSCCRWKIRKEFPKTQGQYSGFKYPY
Chain of UniProt P48067 (whole entry, looked up): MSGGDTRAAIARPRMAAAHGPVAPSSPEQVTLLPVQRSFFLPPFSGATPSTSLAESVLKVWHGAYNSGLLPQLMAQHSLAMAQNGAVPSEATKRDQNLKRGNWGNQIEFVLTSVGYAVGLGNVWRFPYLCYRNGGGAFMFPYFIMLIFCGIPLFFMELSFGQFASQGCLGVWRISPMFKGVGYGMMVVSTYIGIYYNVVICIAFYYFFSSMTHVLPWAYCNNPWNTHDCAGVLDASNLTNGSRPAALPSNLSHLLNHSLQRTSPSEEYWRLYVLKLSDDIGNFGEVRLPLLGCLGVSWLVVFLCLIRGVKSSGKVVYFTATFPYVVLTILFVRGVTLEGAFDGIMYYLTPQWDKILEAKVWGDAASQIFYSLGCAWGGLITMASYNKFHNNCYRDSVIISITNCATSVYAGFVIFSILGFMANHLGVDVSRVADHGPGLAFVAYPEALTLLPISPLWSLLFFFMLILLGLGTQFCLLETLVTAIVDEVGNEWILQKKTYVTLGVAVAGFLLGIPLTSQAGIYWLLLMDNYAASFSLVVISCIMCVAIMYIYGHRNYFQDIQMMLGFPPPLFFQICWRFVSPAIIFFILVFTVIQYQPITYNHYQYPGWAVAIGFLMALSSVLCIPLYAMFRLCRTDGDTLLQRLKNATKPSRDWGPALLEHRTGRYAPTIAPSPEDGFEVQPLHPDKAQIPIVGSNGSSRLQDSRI

Substance = GAAGGAAGGAAG (dsDNA); tested on = Fibroin-modulator-binding protein-1; assay = ITC; test system = double-stranded DNA, one strand shown; endpoint = Kd; value = 5610 ± 529 nM
Substance = ATTTTTTAGTCCTATATATACTCGCTCTGCACTTGTCAAGTCAATCGGTCC (dsDNA; 5'-amino-C6 primer); tested on = SPT15/TOA1/TOA2/SUA7 1-240; 1-286; 1-122; 1-345; assay = array; test system = double-stranded DNA, one strand shown; setting = TBP:TFIIA:TFIIB ternary complex; endpoint = Kd; value = 2.06 ± 0.89 nM
Substance = GAGCGAGCGAGC (dsDNA); tested on = Fibroin-modulator-binding protein-1; assay = ITC; test system = double-stranded DNA, one strand shown; endpoint = Kd; value = 10600 nM
Substance = GGGAGAACUUCGACCAGAAGAAAGACGGUACGCGACUCAACACCCGCCUCCGUCAGGUUUUAUGUGCGCAUACAUGGAUCCUC (ssRNA; 2'-fluoro pyrimidines); tested on = integrin alphaV/beta3 31-992/27-718 (Homo sapiens); assay = SPR; test system = RNA; setting = with: MnCl2 1 mM; scale = higher = more binding; endpoint = relative binding; value = 52.3 RU
Substance = GSGAGPETLV; tested on = human MAGI1-2/6 PDZ construct (MBP fusion); assay = surface plasmon resonance; test system = peptide; setting = concentration not given; scale = higher = stronger binding; endpoint = normalised SPR binding response; value = 12.6 normalised RU
Substance = GAATTCCTATAAAGTAATGTGGAGCTCCGTTCGTCTCAAGTCAATCGGTCC (dsDNA; 5'-amino-C6 primer); tested on = SPT15/TOA1/TOA2/SUA7 1-240; 1-286; 1-122; 1-345; assay = array; test system = double-stranded DNA, one strand shown; setting = TBP:TFIIA:TFIIB ternary complex; endpoint = Kd; value = 1.72 ± 0.57 nM
Substance = GGGAGAACUUCGACCAGAAGGUGCACGGCAAUACGCAUGACGUUCACCCUGCCUUUGCCUUAUGUGCGCAUACAUGGAUCCUC (ssRNA; 2'-fluoro pyrimidines); tested on = integrin alphaV/beta3 31-992/27-718 (Homo sapiens); assay = SPR; test system = RNA; setting = with: MnCl2 1 mM; scale = higher = more binding; endpoint = relative binding; value = 51.1 RU
Substance = DNA 1 CACTGGCCGTCTTACGGTCGCTCTGCTCGACG / DNA 2 CGACCGTAAGACGGCCAGTG (dsDNA; 20 bp, 3' 12 nt overhang); tested on = RECQL 63-592 E328A (Homo sapiens, UniProt P46063); assay = fluorescence anisotropy; test system = double-stranded DNA; setting = with: Mg2+ 3 mM; endpoint = Kd; value = 17.1 ± 1 nM
Substance = GGGAGAACUUCGACCAGAAGAUUCCAGAGAGCGACACAUUACGCGAAACACUCGCCCGCCUAUGUGCGCAUACAUGGAUCCUC (ssRNA; 2'-fluoro pyrimidines); tested on = integrin alphaV/beta3 31-992/27-718 (Homo sapiens); assay = SPR; test system = RNA; setting = with: MnCl2 1 mM; scale = higher = more binding; endpoint = relative binding; value = 45.8 RU
Substance = CTCAGGAATTCCTATAACGTAATGTGGAGCTCAGTTCAAGTCAATCGGTCC (dsDNA; 5'-amino-C6 primer); tested on = SPT15/TOA1/TOA2/SUA7 1-240; 1-286; 1-122; 1-345; assay = array; test system = double-stranded DNA, one strand shown; setting = TBP:TFIIA:TFIIB ternary complex; endpoint = Kd; value = 1.86 ± 0.35 nM
Substance = AATCAATCAATC (dsDNA); tested on = Fibroin-modulator-binding protein-1; assay = ITC; test system = double-stranded DNA, one strand shown; endpoint = Kd; value = 2430 ± 269 nM
Substance = DNA 1 TGGGTGGGTAGGGTGGGTAGGGGAGGAT / DNA 2 ATCCTCCCCTA (DNA; intramolecular parallel G4, 5' overhang, 11-bp duplex); tested on = REV1 330-833 S485L (Homo sapiens, UniProt Q9UBZ9); assay = FP; test system = folded DNA; setting = KCl 100 mM; endpoint = Kd; value = 4.9 ± 1 nM
Substance = CTCAGGAATTCCTATAAGGTAATGTGGAGCTCAGTTCAAGTCAATCGGTCC (dsDNA; 5'-amino-C6 primer); tested on = SPT15/TOA1/TOA2/SUA7 1-240; 1-286; 1-122; 1-345; assay = array; test system = double-stranded DNA, one strand shown; setting = TBP:TFIIA:TFIIB ternary complex; endpoint = Kd; value = 3.45 ± 0.6 nM
Substance = BzATP; tested on = P2X purinoceptor 7 (P2rx7, Rattus norvegicus, UniProt Q64663, I214A/Q143A); assay = ion current, agonist, two-electrode voltage clamp; test system = Xenopus oocytes; setting = 100 µM; endpoint = normalized current; value = 0.79 and 0.74 and 0.8
Substance = 11-deoxycorticosterone; tested on = CYP11B2 (human); assay = substrate binding, stopped-flow global kinetic fitting; test system = purified enzyme; setting = 3-state induced fit model, with: 40-fold excess adrenodoxin; endpoint = rate constant k-2; value = 3.23 ± 0.354 s⁻¹
Substance = QGRWDHETIV; tested on = human SCRIB PDZ3-4 tandem (MBP fusion); assay = surface plasmon resonance; test system = peptide; setting = concentration not given; scale = higher = stronger binding; endpoint = normalised SPR binding response; value = 56.5 normalised RU
Substance = ACCGACCGACCG (dsDNA); tested on = Fibroin-modulator-binding protein-1; assay = ITC; test system = double-stranded DNA, one strand shown; endpoint = Kd; value = 5020 ± 901 nM
Substance = GGGAGAACUUCGACCAGAAGACUAUAUCCGCCGUACUACGCAUCUUUUUCUUCCUGCCUGUAUGUGCGCAUACAUGGAUCCUC (ssRNA; 2'-fluoro pyrimidines); tested on = integrin alphaV/beta3 31-992/27-718 (Homo sapiens); assay = SPR; test system = RNA; setting = with: MnCl2 1 mM; scale = higher = more binding; endpoint = relative binding; value = 45.2 RU
Substance = GCTGGCTGGCTG (dsDNA); tested on = Fibroin-modulator-binding protein-1; assay = ITC; test system = double-stranded DNA, one strand shown; endpoint = Kd; value = 5460 ± 561 nM
Substance = GGGAGAACUUCGACCAGAAGAGCGACUAAACGCAGAGAAAUCGUCUCCCUGAGGUUCCGAUAUGUGCGCAUACAUGGAUCCUC (ssRNA; 2'-fluoro pyrimidines); tested on = integrin alphaV/beta3 31-992/27-718 (Homo sapiens); assay = SPR; test system = RNA; setting = with: MnCl2 1 mM; scale = higher = more binding; endpoint = relative binding; value = 5 RU
Substance = colistin; tested on = Pseudomonas aeruginosa; assay = broth microdilution; test system = clinical isolate RKI-No_497/15; endpoint = MIC; value = 1 mg/L
Substance = GGGAGGGAGGGA (dsDNA); tested on = Fibroin-modulator-binding protein-1; assay = ITC; test system = double-stranded DNA, one strand shown; endpoint = Kd; value = 7650 nM
Substance = methyl-β-cyclodextrin; tested on = Sodium- and chloride-dependent glycine transporter 1 (SLC6A9, Homo sapiens, UniProt P48067); assay = transport activity, [3H]glycine uptake; setting = 3.5 mg/mL, 1 min, with: glycine 300 µM; scale = higher = more transport; endpoint = glycine uptake rate; value = 57 a.u. and 43.5 a.u. and 47.5 a.u. and 47.9 a.u. and 43 a.u.
Substance = GGGAGAACUUCGACCAGAAGUUCCGGCCUACGCAACUUUUUAUCCCCUGCCUGGCCGUAAUUAUGUGCGCAUACAUGGAUCCUC (ssRNA; 2'-fluoro pyrimidines); tested on = integrin alphaV/beta3 31-992/27-718 (Homo sapiens); assay = SPR; test system = RNA; setting = with: MnCl2 1 mM; scale = higher = more binding; endpoint = relative binding; value = 35.8 RU
Substance = ACTGACTGACTG (dsDNA); tested on = Fibroin-modulator-binding protein-1; assay = ITC; test system = double-stranded DNA, one strand shown; endpoint = Kd; value = 8440 nM
Substance = GGGAGAACUUCGACCAGAAGUGCCAAGCCAGGCAGCGUGCAUAAUCCGAGUAGACAUUUUUAUGUGCGCAUACAUGGAUCCUC (ssRNA; 2'-fluoro pyrimidines); tested on = integrin alphaV/beta3 31-992/27-718 (Homo sapiens); assay = SPR; test system = RNA; setting = with: MnCl2 1 mM; scale = higher = more binding; endpoint = relative binding; value = 65.1 RU
Substance = CGCGCCTGCGCTCTATATATACAGCGGCCCTGCCCTCAAGTCAATCGGTCC (dsDNA; 5'-amino-C6 primer); tested on = SPT15/TOA1/TOA2/SUA7 1-240; 1-286; 1-122; 1-345; assay = array; test system = double-stranded DNA, one strand shown; setting = TBP:TFIIA:TFIIB ternary complex; endpoint = Kd; value = 1.74 ± 0.23 nM
Substance = Peginesatide; tested on = UT7/EPO; assay = tyrosine phosphorylation, LC-MS/MS phosphoproteomics, GluC, measured: SPRY4 tyrosine 52; setting = 10 nM, 15 min, with: 10 U/mL EPO; scale = reference: vehicle; endpoint = phosphorylation level; value = 4.6 fold
